Published values collected from several papers.
Each numbered part is a random draw from the data of one study; scales do not carry over between parts. Changes are numbered by the printed parent chain.

Sample 1
Target: ABI1, truncated, D143A, DHFR fusion (Arabidopsis thaliana)
Technique: DHFR PCA, deep sequencing
Sample: yeast
Setting: methotrexate growth selection, single substitutions
Together with: (+)-ABA 710 µM
Relative to: wild-type fitted maximum
Reading: higher = stronger binding
Starting sequence: PYL1, truncated, DHFR fusion (Arabidopsis thaliana); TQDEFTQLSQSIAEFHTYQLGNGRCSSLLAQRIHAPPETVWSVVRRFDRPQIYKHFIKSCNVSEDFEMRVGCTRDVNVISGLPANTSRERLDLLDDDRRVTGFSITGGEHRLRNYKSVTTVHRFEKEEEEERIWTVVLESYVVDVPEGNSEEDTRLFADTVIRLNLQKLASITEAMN
Substitution | relative binding score [%]
G81E | 48.2
I105P | -4.39
P36L | 92.5
K126V | 113
K54F | -1.93
R49G | 84.8
G81V | 53.7
D92T | 94.7
R88E | 101
S27D | 98
Y18K | 99.1
W134V | 110
F15D | 70.7
S104A | 82.5
H34T | 96.2
E67N | 101
I133Y | 110
F157G | -3.63
R45I | 30.6

Sample 2
Target: Interferon regulatory factor 5, full length, phosphomimetic (IRF5, Homo sapiens, UniProt Q13568-2, residues 1-514, K96S/S451D/S453D/S456D/S462D)
Technique: protein-binding microarray
Molecule type: double-stranded DNA, one strand shown
Sample: in vitro
Tested at: 250 nM
Setting: 60-bp whole probe
Together with: salmon DNA 0.4 mg/ml
Relative to: random background probes
Reading: higher = stronger binding
Shared flanks, not repeated: GCCTAGCAC … GTCTTGATTCGCTTGACGCTGCTG
Oligonucleotide | log fluorescence
TTAGAACGGGGGACTGGATTAGTGCTA | 0.551 z-score
GGTATTATTTATTGTAGCCTCGTGCTA | 0.628 z-score
GACGAACTGAGTCTGGAGACGTGCTAG | -0.487 z-score
GACGGTCTGGGTTTCGGGACGTGCTAG | 2.23 z-score
TTCGGTATCCTTCTCCTTTAGTGCTAG | 1.38 z-score
GATGGTCTCGGACTGGGGACGTGCTAG | -0.218 z-score
TTTTTTTTTTTTTTTGTATTGTGCTAG | 1.53 z-score
TTAGGTATCGTTCTCCTTTAGTGCTAG | 2.88 z-score
TTCACTATTGCTTCCTCTTTGTGCTAG | 1.35 z-score
CCATTTTGTGTTTTCATTTTGTGCTAG | 1.56 z-score
GACGGTCTCCTACTGCTAACGTGCTAG | -0.456 z-score
GCTTTTTTTTTTTTTTTTTTGTGCTAG | 1.12 z-score
GACGATATCAGACTCGAGACGTGCTAG | 0.577 z-score
TTAGGTTTCGGTTCCGGTCAGTGCTAG | 10.5 z-score
GGCGGTCTCGGTTTCGGGACGTGCTAG | 2.73 z-score
TCATTTTATGCTTTCTTACTGTGCTAG | 1.13 z-score
TCAATTTTTTTTTTCTAACTGTGCTAG | 1.04 z-score
TTAGATATCAGGATCGATTAGTGCTAG | 0.913 z-score
TTAGATTTAGGGACTGGATTAGTGCTA | -0.0717 z-score
TCAATTCTCTGCTTGCGACTGTGCTAG | 0.571 z-score

Sample 3
Target: Histone acetyltransferase KAT6A, both winged helices, GST fusion (KAT6A, Homo sapiens, UniProt Q92794, residues 1-181)
Technique: protein binding microarray
Molecule type: double-stranded DNA, one strand shown
Sample: in vitro
Tested at: not given
Setting: 8-mer, flanks averaged, mean of 2 arrays, mostly near background
Relative to: not given
Reading: higher = stronger binding
Target sequence (chain): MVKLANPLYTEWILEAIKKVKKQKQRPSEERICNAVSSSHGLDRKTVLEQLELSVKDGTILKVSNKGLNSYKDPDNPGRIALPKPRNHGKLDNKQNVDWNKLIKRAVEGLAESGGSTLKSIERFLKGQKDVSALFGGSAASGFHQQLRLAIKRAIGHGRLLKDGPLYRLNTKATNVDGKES
Oligonucleotide | E-score
CAATGGCC | -0.134
ATTGGGCG | -0.057
TCGCGTAA | 0.206
GACAACAA | -0.187
GGATATCA | 0.109
CAGTGTCG | -0.0204
CCTTGGCA | -0.223
CGCCGAAA | 0.228
ACTAAGAT | -0.0592
GGCCCATA | 8.5e-05
AAGAAGGC | -0.122
ATTTAGCA | -0.154
GACGCAGC | 0.0895
GGGATCTA | -0.103
CAATATAA | -0.000255
CCAATACG | 0.0405
CTTTTGTA | -0.0841
GTACCGCA | 0.243
GTGGGACA | -0.0267
ACGTCGTG | -0.064
GTCGGCGA | 0.308
TATATGAA | -0.0218
CGCCCGGC | 0.308
AGTCACCA | -0.177
GTAGAGTA | -0.0914

Sample 4
Target: CCNE2, cyclin fold, Cln2 fusion (human)
Technique: yeast growth competition, sequencing
Sample: yeast
Setting: strong parent motif
Relative to: not given
Reading: higher = stronger binding
Starting sequence: BRCA2 docking peptide (human); PSIKRNLLNEFDR; partner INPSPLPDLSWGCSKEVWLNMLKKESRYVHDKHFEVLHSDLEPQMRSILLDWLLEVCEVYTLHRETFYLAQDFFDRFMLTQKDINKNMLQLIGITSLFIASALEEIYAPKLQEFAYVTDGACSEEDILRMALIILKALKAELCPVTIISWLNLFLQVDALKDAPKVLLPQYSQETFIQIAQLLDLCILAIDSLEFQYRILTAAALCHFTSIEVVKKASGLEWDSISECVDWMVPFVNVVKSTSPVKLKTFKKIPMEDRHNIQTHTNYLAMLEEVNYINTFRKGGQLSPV
Substitution | normalised enrichment score
PSIKRNLLWEFDR [N9W] | 2.18
PSIKRNLRNEFDR [L8R] | -0.648
PSIKRNLLNFFDR [E10F] | 1.55
PSIKRNLYNEFDR [L8Y] | 0.852
PSIKRNLLYEFDR [N9Y] | 3.22
WSIKRNLLNEFDR [P1W] | 1.91
PSIKRNLENEFDR [L8E] | 0.484
PSIKRNLLNEKDR [F11K] | -0.326
PSIKRNLLNEFDA [R13A] | 1.72
PSITRNLLNEFDR [K4T] | -0.54
PSIKANLLNEFDR [R5A] | -0.0306
PSIKHNLLNEFDR [R5H] | -0.254
PSIKRNLLNEFRR [D12R] | 1.17
PSIKRNLLNVFDR [E10V] | 0.705
ASIKRNLLNEFDR [P1A] | 1.8
PSTKRNLLNEFDR [I3T] | 0.431
PSIKRGLLNEFDR [N6G] | -0.504
PSCKRNLLNEFDR [I3C] | 4.66
PSIKRNLTNEFDR [L8T] | 0.962
PSKKRNLLNEFDR [I3K] | 1.05
PSIKRQLLNEFDR [N6Q] | 0.147
PSIKRNLLNGFDR [E10G] | 0.598
PSEKRNLLNEFDR [I3E] | 0.451
PSIKNNLLNEFDR [R5N] | -0.0348
PSIKRNLLNEFKR [D12K] | 1.83

Sample 5
Target: RING finger protein unkempt homolog, zinc fingers 1-6, SBP tag (UNK, Homo sapiens, UniProt Q9C0B0, residues 30-357)
UniProt Q9C0B0, sequence (30-357, looked up): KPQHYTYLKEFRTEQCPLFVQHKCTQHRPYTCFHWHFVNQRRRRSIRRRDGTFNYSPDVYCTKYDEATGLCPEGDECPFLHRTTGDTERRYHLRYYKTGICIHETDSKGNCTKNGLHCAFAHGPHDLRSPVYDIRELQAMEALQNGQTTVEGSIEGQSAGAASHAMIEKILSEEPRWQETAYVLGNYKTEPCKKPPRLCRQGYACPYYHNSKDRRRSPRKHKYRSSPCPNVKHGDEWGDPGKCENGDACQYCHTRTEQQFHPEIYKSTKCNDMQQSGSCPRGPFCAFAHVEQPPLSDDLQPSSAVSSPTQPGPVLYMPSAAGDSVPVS
Technique: RNA Bind-n-Seq
Molecule type: RNA
Sample: in vitro
Tested at: 100 nM
Setting: RNA with constant flanks, vertebrate orthologous sites, ends assumed
Relative to: input RNA pool
Reading: higher = stronger binding
Shared flanks, not repeated: GGGAGUUCUACAGUCCGACGAUC … CAACAGAGGAUUGAGCAUCA
Oligonucleotide | bound/input enrichment [ratio]
AUGUCCUGUUACCCGGUGGUAUUUUAAAUAUCCACAGUACUCACUUUUUCCAAACGAUCCUAAUAAUUGCCUAGAAAUAUCUUUUUCUUACCUGUUAUUUAUCAAUUUUUCCCAGUAUUU | 0.453
UAUAAUUAUGAAAAUCUAAAGGAUUUUUAAUGUUUAAUUUCCCCUGGCAUAUUAAGACAUCUUUUUUCCAGGCAAAUCACUCAGCGUGUGAGUGUGCGUGCACAUGUUACAAAGACAACU | 0.185
GUGACUUUGGACGUCCGCUCCCCCUCACUGUGGAGGCUGUUUAGUCUCGGGCCUUGCAGGUUUAUUUUCCUCUCCUGGACUCGAGGCUUCUGUUUCACCAUGUUCCGCCAGAUCGUUGGU | 0.28
UCUAUACGAUUUUAAAGACACUUCCUUACAAGGCACUUUGGCUCUUCAUAGAUCCCAUUGUAUUUACAGAUCUAUUUUUUUAAAAUAGCAGUAUGAACUCAAAGGGGACUUGGUUGGUGU | 0.58
AUCUCGUGCCUCACCCCACAGGAAGUGGGGGAAGCUGGAUGACCCUCACUGUUCCAAUUUAAUAUUUGUUGGUUUUCUUUUUUAAACAAAAAAAAAAUUCCUGUAUUUAUUAUGACGAUG | 0.161
AAGAUGGUGGUUGUACAUUAUUUCAUUUAGAAAAUAUAAAAAUUCAUUUUGUUUUGAAGCUAGGUGUUAAACUGGAAUAGCUCUUAUACCCCAGAGAAUGGGGCAGUUGUGCCCUUCCCU | 1.64
UUUACAAUCUUCUUCUUAAACAUAUUUUCAAACAAUAGGAAACUUUUUUUAUUUUUACAGUUUAGUAUCUGGUUUCUACAUGAAGACUAAACUCACGCUUAUAGCUAAAUGUGGUCUCUG | 1.18
CUACACCAGAUAUUUUAACUGUUUUAAAGUUACAAACAAGCUUUGCUUUCUGCAUUUAAAUAGAAUACUUUUGUAUUGUGCUUCAGAUGUGUGGCGAUGUUAGUUUGCUCUUAUAAUAUU | 0.459
UGUGGAGGAGGAACCCGCUUACCGCUGCCCGCAUGCAACUGAGGGCCGCUCACCAGCCUGCAGGAGGCCAUAGUAUUUUUUUUCUGCCUCAGAGUCCCCAAAGCCUUCAAGCAGAAGUGG | 1.8
AUCAGUAGAAUUACAUAAUACUAAAGAUACAGUUGAAAGGAUAUUCCACGUAUGUGUUGUAGUUACUAAAAGAAUUAUAGCUGUUAUUGCCUUGUAUUUAUAACCCUUGUUGCAGGUUUC | 0.857
AUAAUCACUAAUUGUAAUCGGAAUAAAGUGUAACAUUGUGUAGCUUUUUUUUGUAUAAAAUAGACAAAUAGAAAUGGUCCAAUUAGUUUCCUUUUUAAUAUGCUUAAAAUAAGCAGGUGG | 1.32

Repeated from above (sample 1):
Substitution | relative binding score [%]
I105P | -4.39
P36L | 92.5
K126V | 113
K54F | -1.93
R49G | 84.8
G81V | 53.7
D92T | 94.7
R88E | 101
S27D | 98
Y18K | 99.1
